# Measured values collected from several papers.
# Parts stem from different laboratories: compare values within a part only.

# Series 1
# Target: Interferon regulatory factor 3, full length, phosphomimetic (IRF3, Homo sapiens, UniProt Q14653, residues 1-427, S386D/S396D/S398D/S402D/T404D/S405D)
# Technique: protein-binding microarray
# Form: double-stranded DNA, one strand shown
# Matrix: in vitro
# Concentration: 2540 nM top
# Notes: 60-bp whole probe
# Added: salmon DNA 0.4 mg/ml
# Baseline: random background probes
# Direction: higher = stronger binding
# Constant ends, left off below: GCCTAGCAC … GTCTTGATTCGCTTGACGCTGCTG
# Construct (chain): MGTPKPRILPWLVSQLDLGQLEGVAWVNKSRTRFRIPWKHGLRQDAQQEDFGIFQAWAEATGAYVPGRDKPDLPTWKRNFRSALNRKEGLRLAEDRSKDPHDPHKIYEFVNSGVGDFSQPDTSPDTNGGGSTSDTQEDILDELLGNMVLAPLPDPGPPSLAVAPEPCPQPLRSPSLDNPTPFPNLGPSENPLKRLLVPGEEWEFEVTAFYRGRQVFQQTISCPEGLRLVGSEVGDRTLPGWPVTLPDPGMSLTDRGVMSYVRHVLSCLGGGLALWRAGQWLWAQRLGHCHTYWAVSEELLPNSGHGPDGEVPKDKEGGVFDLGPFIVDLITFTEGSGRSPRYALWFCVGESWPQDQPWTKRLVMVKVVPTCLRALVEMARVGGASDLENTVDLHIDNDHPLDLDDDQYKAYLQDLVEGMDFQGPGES
Strand,fitted relative affinity
GACGGTATCCTTTTCCCGACGTGCTAG,7.93 z-score
TTAGATCTCATTCTCGATTAGTGCTAG,1.82 z-score
TTGGGTTTCGGTCTCGGTTAGTGCTAG,7.16 z-score
GACGGTCTAGGTTTCGGGACGTGCTAG,1.94 z-score
TTAGAACTGGGGTTTCGAATAGTGCTA,0.566 z-score
TCACATACGAGTTTCCATTTGTGCTAG,4.62 z-score
TCAATTTTCACGGTGGGACTGTGCTAG,0.138 z-score
GTGTTATTAAAACTTCATGAAGTGCTA,0.0358 z-score

# Series 2
# Target: Histone acetyltransferase KAT6A, winged helix 1, GST fusion (KAT6A, Homo sapiens, UniProt Q92794, residues 1-85)
# Technique: protein binding microarray
# Form: double-stranded DNA, one strand shown
# Matrix: in vitro
# Concentration: not given
# Notes: 8-mer, flanks averaged, mean of 2 arrays, mostly near background
# Baseline: not given
# Direction: higher = stronger binding
# Residues (chain): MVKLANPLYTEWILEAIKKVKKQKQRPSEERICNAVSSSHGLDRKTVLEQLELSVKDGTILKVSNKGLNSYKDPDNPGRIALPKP
Strand,E-score
CAAGTGCC,0.0569
CGGGGCTA,0.0786
CGAAACAG,-0.156
CTTGGCTA,-0.272
AAAGCTAC,0.0818
CTACTAAA,0.0542
GGAAAGGA,0.0183
GATGCCAA,-0.239

# Series 3
# Target: Sal-like protein 4, full length isoform A (SALL4, Homo sapiens, UniProt Q9UJQ4, residues 1-1053)
# Chain of UniProt Q9UJQ4 (whole entry, looked up): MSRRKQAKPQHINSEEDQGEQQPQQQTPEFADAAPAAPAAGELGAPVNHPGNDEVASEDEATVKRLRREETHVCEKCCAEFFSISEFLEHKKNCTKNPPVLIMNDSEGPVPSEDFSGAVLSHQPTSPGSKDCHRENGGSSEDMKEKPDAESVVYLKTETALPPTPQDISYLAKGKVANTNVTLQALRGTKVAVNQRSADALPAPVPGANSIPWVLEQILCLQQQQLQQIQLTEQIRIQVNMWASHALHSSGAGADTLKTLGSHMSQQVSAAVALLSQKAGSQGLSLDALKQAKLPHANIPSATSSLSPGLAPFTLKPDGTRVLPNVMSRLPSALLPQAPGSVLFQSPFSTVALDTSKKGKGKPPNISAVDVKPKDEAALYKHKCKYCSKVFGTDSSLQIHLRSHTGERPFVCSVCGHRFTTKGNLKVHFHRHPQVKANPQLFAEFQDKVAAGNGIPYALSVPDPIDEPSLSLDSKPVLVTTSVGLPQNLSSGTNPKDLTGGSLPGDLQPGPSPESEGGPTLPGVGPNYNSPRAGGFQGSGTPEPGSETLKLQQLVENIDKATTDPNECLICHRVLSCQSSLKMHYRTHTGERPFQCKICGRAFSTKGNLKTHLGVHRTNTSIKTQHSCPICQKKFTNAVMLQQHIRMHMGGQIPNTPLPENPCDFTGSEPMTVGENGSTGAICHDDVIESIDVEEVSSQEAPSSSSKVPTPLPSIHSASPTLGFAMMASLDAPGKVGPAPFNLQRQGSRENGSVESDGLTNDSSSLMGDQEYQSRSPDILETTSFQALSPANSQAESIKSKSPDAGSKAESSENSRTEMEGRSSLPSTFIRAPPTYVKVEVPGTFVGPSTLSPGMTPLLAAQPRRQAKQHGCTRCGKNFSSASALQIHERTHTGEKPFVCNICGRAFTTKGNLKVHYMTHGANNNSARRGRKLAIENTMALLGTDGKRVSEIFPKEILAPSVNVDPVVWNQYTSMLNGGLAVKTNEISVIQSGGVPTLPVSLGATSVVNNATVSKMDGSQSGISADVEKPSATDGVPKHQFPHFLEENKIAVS
# Technique: universal PBM
# Form: double-stranded DNA, one strand shown
# Matrix: in vitro
# Concentration: 600 nM
# Notes: 8-mer, flanks averaged, mean of replicates
# Direction: higher = stronger binding
Strand,E-score
CCACTGCC,-0.29
TACCGCGA,0.0134
AGCCGTTA,0.0157
TCACTGAA,-0.00319
CATAGTCA,0.168
GTGCATTA,0.215
CCAGTCTC,-0.288
CTTTTACA,0.257
ATTGAAAT,0.354

# Single results of other studies
Substance,target,test,system,conditions,scale,measurement,value
"PhoQ, residues 284 288 289 292 302 303 GLASVI","PhoP, residues 12 14 15 18 19 HHYTI (Escherichia coli, UniProt P23836)","Sort-seq, measured: YFP reporter",E. coli,"PhoQ-PhoP variant library, added: 10 µM Mg2+","baseline: high Mg2+ state, higher = stronger signaling",fold induction,24.3

# Excerpt of the above (series 3):
Strand,E-score
CCACTGCC,-0.29
CCAGTCTC,-0.288
AGCCGTTA,0.0157
ATTGAAAT,0.354
